Assay results from different studies.
Protocols differ between the studies behind these lines. “And” joins repeats or separate records; there may be more than shown. Numbers after ± are the reported error.
RIPK1: Receptor-interacting serine/threonine-protein kinase 1 (RIPK1, Homo sapiens, UniProt Q13546)
ABO G235S/G268A/L266M/R176G: Histo-blood group ABO system transferase (ABO, Homo sapiens, UniProt P16442, G235S/G268A/L266M/R176G)
Bone morphogenetic protein 2: Bone morphogenetic protein 2 (Homo sapiens, UniProt P12643)
EPRS1: Bifunctional glutamate/proline--tRNA ligase (EPRS1, Homo sapiens, UniProt P07814)
ADORA1: Adenosine receptor A1 (ADORA1, Homo sapiens, UniProt P30542)

C[C@H](NC(=O)[C@H](C)NC(=O)[C@H](Cc1ccc(O)cc1)NS(=O)(=O)c1cccc2c(N(C)C)cccc12)C(=O)N[C@@H](CCC(N)=O)C(=O)N[C@@H](CCCCN)C(=O)N[C@@H](Cc1c[nH]cn1)C(=O)N[C@@H](Cc1ccccc1)C(=O)N[C@@H](Cc1c[nH]cn1)C(=O)O  Kd (Rho guanine nucleotide exchange factor TIAM2, PDZ domain (Tiam2, Mus musculus, UniProt Q6ZPF3); fluorescence anisotropy; 25 °C, with: dansylated peptide 1 µM): > 250000 nM
COc1cc(-c2nc3ccc(C(=O)NCCCN4CCN(c5cccc(C)c5C)CC4)cc3n2C2CCC2)cc(OC)c1OC  Kd (Bone morphogenetic protein receptor type-1A (BMPR1A, Homo sapiens, UniProt P36894); binding, TR-FRET): 113 nM
O=C1C(=O)c2cccnc2-c2ncccc21  Kd (Taste receptor type 2 member 5 (TAS2R5, Homo sapiens, UniProt Q9NYW4); HEK293 cell membranes): 900 ± 700 nM
N#Cc1c(Cl)ccc(Oc2ccc(Cl)cc2Cl)c1O  Kd (Enoyl-acyl carrier reductase, with NAD+ (ENR, Toxoplasma gondii, UniProt Q6UCJ9); thermal shift; with: NAD+ 100 µM): 9.9 ± 1 nM
Nc1nc2cnc(C(=O)N3CCOC[C@@H]3c3ccc(C(F)(F)F)cc3)cc2c2c1COC2  Kd (Protein arginine N-methyltransferase 5, SAM-bound (PRMT5, Homo sapiens, UniProt O14744); SPR; with: SAM 20 µM): 0.23 nM
Cc1cc2nc(NC(=O)C3CC3)sc2cc1Oc1ccc(F)c(NC(=O)Cc2cccc(C(F)(F)F)c2)c1  Kd (RIPK1; binding, competition with immobilised ligand): 140 nM
CNc1ccccc1C(=O)O[C@H]1C[C@H](n2cnc3c(N)ncnc32)O[C@@H]1COP(=O)(O)OP(=O)(O)O  Kd (Unconventional myosin-Va (Gallus gallus, UniProt Q02440, D297C/G292C/I296C/S293C/V295G); stopped-flow FRET; 15 °C, with: EDTA 4 mM): 9730 ± 1230 nM
CC(=O)N[C@@H]1[C@@H](O[C@@H]2O[C@H](C(=O)O)[C@@H](O[C@@H]3O[C@H](COS(=O)(=O)O)[C@@H](OS(=O)(=O)O)[C@H](O[C@@H]4O[C@H](C(=O)O)[C@@H](OS(=O)(=O)O)[C@H](OS(=O)(=O)O)[C@H]4OS(=O)(=O)O)[C@H]3NC(C)=O)[C@H](OS(=O)(=O)O)[C@H]2OS(=O)(=O)O)[C@H](OS(=O)(=O)O)[C@@H](COS(=O)(=O)O)O[C@H]1n1ccnn1  Kd (Metalloproteinase inhibitor 3 (Homo sapiens, UniProt P35625); ligand displacement, FP): 350 nM
CCCCCCCCO[C@@H]1O[C@H](CO)[C@H](O)[C@H](O)[C@H]1O[C@@H]1O[C@@H](C)[C@@H](O)[C@@H](O)[C@@H]1O  Kd (ABO G235S/G268A/L266M/R176G; methyl-TROSY NMR titration lineshape; two-state binding model, with: acceptor binding, saturating UDP): 28000 ± 1000 nM
CC(C)C[C@@H](N)C(=O)N[C@H](CC(=O)O)C(=O)N[C@@H](C(=O)N[C@H](Cc1ccccc1)C(=O)N[C@H](CC(C)C)C(=O)N[C@H](Cc1ccc(O)cc1)C(=O)N[C@H](CO)C(=O)N[C@H](CCC(=O)O)C(=O)O)C(C)C  Kd (Programmed cell death 1 ligand 1 (CD274, Homo sapiens, UniProt Q9NZQ7); binding, MST): 7530 nM
CC(=O)N[C@@H]1[C@@H](O[C@@H]2O[C@H](C(=O)O)[C@@H](O[C@@H]3O[C@H](CO)[C@@H](O)[C@H](O[C@@H]4O[C@H](C(=O)O)[C@@H](OS(=O)(=O)O)[C@H](OS(=O)(=O)O)[C@H]4OS(=O)(=O)O)[C@H]3NC(C)=O)[C@H](OS(=O)(=O)O)[C@H]2OS(=O)(=O)O)[C@H](O)[C@@H](CO)O[C@H]1N=[N+]=[N-]  Kd (Bone morphogenetic protein 2; ligand displacement, FP): 33500 nM
CCCCCCCCO[C@@H]1O[C@H](CO)[C@H](O)C[C@H]1O[C@@H]1O[C@@H](C)[C@@H](O)[C@@H](O)[C@@H]1O  Kd (ABO G235S/G268A/L266M/R176G; methyl-TROSY NMR titration lineshape analysis; apo enzyme): 420000 ± 8000 nM
CC(=O)N[C@@H]1[C@@H](O[C@@H]2O[C@H](C(=O)O)[C@@H](O[C@@H]3O[C@H](COS(=O)(=O)O)[C@@H](OS(=O)(=O)O)[C@H](O[C@@H]4O[C@H](C(=O)O)[C@@H](O[C@@H]5O[C@H](COS(=O)(=O)O)[C@@H](OS(=O)(=O)O)[C@H](O[C@@H]6O[C@H](C(=O)O)[C@@H](OS(=O)(=O)O)[C@H](OS(=O)(=O)O)[C@H]6OS(=O)(=O)O)[C@H]5NC(C)=O)[C@H](OS(=O)(=O)O)[C@H]4OS(=O)(=O)O)[C@H]3NC(C)=O)[C@H](OS(=O)(=O)O)[C@H]2OS(=O)(=O)O)[C@H](OS(=O)(=O)O)[C@@H](COS(=O)(=O)O)O[C@H]1N=[N+]=[N-]  Kd (Bone morphogenetic protein 2; ligand displacement, FP): 214 nM
O=C(Cc1cccc(C(F)(F)F)c1)Nc1cc(Oc2c(Cl)cc3nc(NC(=O)C4CC4)sc3c2Cl)ccc1F  Kd (RIPK1; binding, competition with immobilised ligand): 64 nM
Nc1ncnc2c1ncn2[C@@H]1O[C@H](CSCC[C@H](N)C(=O)O)[C@@H](O)[C@H]1O  Kd (Ribosomal RNA large subunit methyltransferase J (rlmJ, Escherichia coli, UniProt P37634)): 7500 ± 900 nM
C=CCCCCCCO[C@@H]1O[C@H](CO)[C@@H](O[C@@H]2O[C@H](CO)[C@H](O)[C@H](O)[C@H]2O[C@@H]2O[C@@H](C)[C@@H](O)[C@@H](O)[C@@H]2O)[C@H](O)[C@H]1NC(C)=O  Kd (ABO G235S/G268A/L266M/R176G; methyl-TROSY NMR titration lineshape analysis; apo enzyme): 291000 ± 6000 nM
Cc1cc(N2CCC(CO)(C3CC3)C2=O)cc(C(=O)NCc2cc(F)cc(-c3cnn(C)c3)c2)n1 (stereo not drawn)  Kd (EPRS1; binding, MST): ~2290 nM and 2290 nM
C[n+]1cc(NC(=O)c2ccc3ccc4ccc(C(=O)Nc5cc6ccccc6[n+](C)c5)nc4c3n2)cc2ccccc21  Kd (telomeric antiparallel G4 DNA; binding, native ESI-MS; 100 mM trimethylammonium acetate; 1 mM KCl): 2.1 nM
CCCn1c(=O)c2[nH]c(-c3ccc(OCC(=O)NCCNC(=O)CCCCCNC(=O)CCCCCNS(=O)(=O)c4cccc5c(N(C)C)cccc45)cc3)nc2n(CCC)c1=O  Kd (ADORA1; CRE reporter gene, antagonist; CHO-A1; Gs-mediated enhancement, with: NECA and forskolin): 50.1 nM
Cc1ccc(Oc2nc3cc(-c4ccc5c(ccn5C)c4)c(Cl)cc3[nH]2)cc1C(=O)O  Kd (PRKAA1/PRKAB1, phosphorylated; with gamma1 (Homo sapiens, UniProt Q13131+Q9Y478, S108A); biolayer interferometry; AMPK complex α1β1(S108A)γ1): 8900 nM
Cc1cc(N2CC[C@@](C#N)(C3(C)CC3)C2=O)cc(C(=O)NCc2cc(F)cc(-c3cnn(C)c3)c2)n1  Kd (EPRS1; binding, MST): 124 nM
CC1=CC(C)=[N+]2C1=Cc1ccc(CCC(=O)NCCOCCOCCOCCOCC(=O)N[C@H](C(=O)N3C[C@H](O)C[C@H]3C(=O)NCc3ccc(-c4scnc4C)cc3)C(C)(C)C)n1[B-]2(F)F  Kd (von Hippel-Lindau disease tumor suppressor, with elongin B/C (VHL, Homo sapiens, UniProt P40337); binding, fluorescence polarization; 90 min, total binding): 101 nM
Cc1cc(C#CC2(O)CCCCC2)cc2c1cc(C(=O)O)n2-c1cccc(Cl)c1  Kd (Microphthalmia-associated transcription factor (Homo sapiens, UniProt O75030); binding, ITC): 390 nM
COc1cc2c(c(OC)c1OC)-c1c(cc3c(c1OC)OCO3)CC(C)C(C)(O)C2OC(=O)c1ccccc1 (stereo not drawn)  Kd (TAS1R2 (Homo sapiens, UniProt Q8TE23); binding; 0.5% DMSO): 0.385 nM
CCCn1c(=O)c2[nH]c(-c3ccc(OCC(=O)NCCNC(=O)CCCCCNC(=O)COc4ccc(/C=C/C5=[N+]6C(=Cc7ccc(-c8cccs8)n7[B-]6(F)F)C=C5)cc4)cc3)nc2n(CCC)c1=O  Kd (ADORA1; CRE reporter gene, antagonist, parallel shift; CHO-A1; Gi-mediated inhibition, with: NECA and forskolin): 120 nM
O=P(O)(O)O[C@@H]1[C@@H](O)[C@H](O)[C@H](O)[C@H](O)[C@H]1OP(=O)(O)O  Kd (Inositol 1,4,5-trisphosphate-gated calcium channel ITPR1, IP3-binding core (Itpr1, Rattus norvegicus, UniProt P29994, R504Q); binding, radioligand competition binding; IP3-binding core R504Q, CLM medium, with: [3H]IP3): 617 nM
O=c1[nH]cnc2c(CN3C[C@@H](O)[C@H](O)C3)c[nH]c12  Kd (Purine nucleoside phosphorylase (PNP, Homo sapiens, UniProt P00491); enzyme activity, inhibitor; pH 7.4, 25 °C, first subunit slow-onset, with: 50 mM phosphate): 0.156 ± 0.072 nM
CCCCCCCCN(CCC(=O)Nc1ccccc1)C(=O)c1ccccn1  Kd (Albumin (ALB, Homo sapiens, UniProt P02768); binding, immobilised HSA beads; PBS; 12 min, pH 7.4): 7200 nM
CCCn1c(=O)c2[nH]c(-c3ccc(OCC(=O)NCCNC(=O)CCCCCNS(=O)(=O)c4ccc(C5=c6cc7c8c(c6Oc6c5cc5c9c6CCCN9CCC5)CCC[N+]=8CCC7)c(S(=O)(=O)[O-])c4)cc3)nc2n(CCC)c1=O  Kd (ADORA1; CRE reporter gene, antagonist; CHO-A1; Gs-mediated enhancement, with: NECA and forskolin): 813 nM
CC(C)C[C@H](NC(=O)[C@H](CC(C)C)NC(=O)[C@H](CC(=O)O)NC(=O)[C@@H](N)CCCCN)C(=O)N[C@@H](CCC(=O)O)C(=O)N[C@@H](CCC(N)=O)C(=O)N[C@@H](CCCCN)C(=O)N[C@@H](CCCNC(=N)N)C(=O)N[C@@H](C)C(=O)N[C@@H](C)C(=O)N[C@H](C(=O)N[C@@H](CC(=O)O)C(=O)N[C@H](C(=O)N[C@@H](Cc1ccc(O)cc1)C(=O)N[C@@H](CS)C(=O)O)[C@@H](C)O)C(C)C  Kd (Calreticulin, N-domain (Calr, Mus musculus, UniProt P14211); SPR; pH 7.4, 25 °C): 9600 ± 0.0038 nM
CC(=O)N[C@@H]1[C@@H](O[C@@H]2O[C@H](C(=O)O)[C@@H](O[C@@H]3O[C@H](COS(=O)(=O)O)[C@@H](OS(=O)(=O)O)[C@H](O[C@@H]4O[C@H](C(=O)O)[C@@H](OS(=O)(=O)O)[C@H](OS(=O)(=O)O)[C@H]4OS(=O)(=O)O)[C@H]3NC(C)=O)[C@H](OS(=O)(=O)O)[C@H]2OS(=O)(=O)O)[C@H](OS(=O)(=O)O)[C@@H](COS(=O)(=O)O)O[C@H]1N=[N+]=[N-]  Kd (Antithrombin-III (SERPINC1, Homo sapiens, UniProt P01008); ligand displacement, FP): 3760 nM
CN(C)c1cc2ccccc2c(N)n1  Kd (CUGBP Elav-like family member 1, RRM1/2 domains (CELF1, Homo sapiens, UniProt Q92879, C177A); isothermal titration calorimetry; 25 °C): 21300 ± 3300 nM
NCC(=O)NCC(=O)N[C@@H](Cc1c[nH]cn1)C(=O)O  Kd (HIV RRE IB RNA; fluorescein-labelled RNA titration; 1 mM TCEP): 320000 ± 30000 nM

Excerpt of the above:
CC(C)C[C@@H](N)C(=O)N[C@H](CC(=O)O)C(=O)N[C@@H](C(=O)N[C@H](Cc1ccccc1)C(=O)N[C@H](CC(C)C)C(=O)N[C@H](Cc1ccc(O)cc1)C(=O)N[C@H](CO)C(=O)N[C@H](CCC(=O)O)C(=O)O)C(C)C  Kd (Programmed cell death 1 ligand 1 (CD274, Homo sapiens, UniProt Q9NZQ7); binding, MST): 7530 nM
CC(=O)N[C@@H]1[C@@H](O[C@@H]2O[C@H](C(=O)O)[C@@H](O[C@@H]3O[C@H](CO)[C@@H](O)[C@H](O[C@@H]4O[C@H](C(=O)O)[C@@H](OS(=O)(=O)O)[C@H](OS(=O)(=O)O)[C@H]4OS(=O)(=O)O)[C@H]3NC(C)=O)[C@H](OS(=O)(=O)O)[C@H]2OS(=O)(=O)O)[C@H](O)[C@@H](CO)O[C@H]1N=[N+]=[N-]  Kd (Bone morphogenetic protein 2; ligand displacement, FP): 33500 nM
